Measurements pooled from the literature.
Numbered parts are unrelated; each lists some results of a single study.
UniProt O15294, sequence (whole entry, looked up): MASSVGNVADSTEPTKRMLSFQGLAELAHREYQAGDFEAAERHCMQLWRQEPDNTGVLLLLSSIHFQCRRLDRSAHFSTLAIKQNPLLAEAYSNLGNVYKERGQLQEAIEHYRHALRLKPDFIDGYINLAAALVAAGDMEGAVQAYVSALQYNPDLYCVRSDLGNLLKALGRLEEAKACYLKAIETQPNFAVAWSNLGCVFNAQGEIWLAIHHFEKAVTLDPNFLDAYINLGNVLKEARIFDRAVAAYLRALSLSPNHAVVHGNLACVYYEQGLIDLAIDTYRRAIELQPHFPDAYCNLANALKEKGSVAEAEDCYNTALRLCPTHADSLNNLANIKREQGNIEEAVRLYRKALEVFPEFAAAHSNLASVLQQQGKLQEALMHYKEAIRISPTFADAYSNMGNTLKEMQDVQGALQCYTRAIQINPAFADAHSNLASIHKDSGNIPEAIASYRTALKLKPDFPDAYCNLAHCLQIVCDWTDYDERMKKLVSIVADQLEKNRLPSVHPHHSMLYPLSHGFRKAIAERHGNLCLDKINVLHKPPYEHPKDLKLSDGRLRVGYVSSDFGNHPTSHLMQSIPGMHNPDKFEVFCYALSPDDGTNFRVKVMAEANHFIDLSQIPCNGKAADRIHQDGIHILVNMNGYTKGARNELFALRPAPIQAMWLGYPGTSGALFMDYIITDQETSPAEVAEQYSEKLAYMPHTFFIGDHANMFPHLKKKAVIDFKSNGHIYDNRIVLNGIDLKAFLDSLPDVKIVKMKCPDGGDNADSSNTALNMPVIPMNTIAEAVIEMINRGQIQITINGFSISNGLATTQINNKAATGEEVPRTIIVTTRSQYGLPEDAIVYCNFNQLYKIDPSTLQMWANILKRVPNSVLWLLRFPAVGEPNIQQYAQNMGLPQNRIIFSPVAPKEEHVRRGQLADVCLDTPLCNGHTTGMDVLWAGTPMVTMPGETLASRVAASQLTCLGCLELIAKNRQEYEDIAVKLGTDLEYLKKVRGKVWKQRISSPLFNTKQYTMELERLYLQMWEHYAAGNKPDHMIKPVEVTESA

Block 1 — technique: RNA Bind-n-Seq; form: RNA; medium: in vitro; tested at: 20 nM; notes: 6-mer, flanks averaged, single round; added: 150 mM LiCl; baseline: input library; reading: higher = stronger binding; quantity: 6-mer enrichment (R)
Target: TAR DNA-binding protein 43, full length, His tag (TARDBP, Homo sapiens, UniProt Q13148, residues 1-414)
Oligonucleotide = CCGAAC; value = 0.827
Oligonucleotide = UACCCA; value = 0.933
Oligonucleotide = UAAAUA; value = 0.961
Oligonucleotide = AGACCG; value = 0.844
Oligonucleotide = AGACCA; value = 0.812
Oligonucleotide = UCAGUC; value = 0.846
Oligonucleotide = CUUGGU; value = 1.06
Oligonucleotide = CCGACC; value = 0.849

Block 2 — technique: universal PBM; form: double-stranded DNA, one strand shown; medium: in vitro; tested at: not given; reading: higher = stronger binding; quantity: E-score
Target: Sal-like protein 4, full length isoform B (SALL4, Homo sapiens, UniProt Q9UJQ4-2, residues 1-616)
Notes: 8-mer, flanks averaged, mean of replicates
Oligonucleotide = AGAACAGC; value = -0.118
Oligonucleotide = GCATTCGA; value = -0.0298
Oligonucleotide = AGAACCGG; value = -0.244
Oligonucleotide = CATCGTAG; value = -0.0799
Oligonucleotide = CAGGGGCA; value = -0.166
Oligonucleotide = GCGAAATA; value = 0.145
Oligonucleotide = ATAGCAGC; value = -0.0858
Oligonucleotide = GTCCATTA; value = 0.147

Other studies, line by line
Molecule = PhoQ, residues 284 288 289 292 302 303 AMDMFI; target = PhoP, residues 12 14 15 18 19 SEGLL (Escherichia coli, UniProt P23836); test = Sort-seq, measured: YFP reporter; system = E. coli; setting = PhoQ-PhoP variant library, added: 10 µM Mg2+; scale = baseline: high Mg2+ state, higher = stronger signaling; quantity = fold induction; value = 1.13
Molecule = NWYVSDHTDNHHSMA; target = UDP-N-acetylglucosamine--peptide N-acetylglucosaminyltransferase 110 kDa subunit (OGT, Homo sapiens, UniProt O15294); test = binding, phage display NGS; system = peptide; setting = concentration not given; scale = baseline: input library; quantity = enrichment fold change; value = 5.62

Excerpt of the above (other studies, line by line):
Molecule = PhoQ, residues 284 288 289 292 302 303 AMDMFI; target = PhoP, residues 12 14 15 18 19 SEGLL (Escherichia coli, UniProt P23836); test = Sort-seq, measured: YFP reporter; system = E. coli; setting = PhoQ-PhoP variant library, added: 10 µM Mg2+; scale = baseline: high Mg2+ state, higher = stronger signaling; quantity = fold induction; value = 1.13
Molecule = NWYVSDHTDNHHSMA; target = UDP-N-acetylglucosamine--peptide N-acetylglucosaminyltransferase 110 kDa subunit (OGT, Homo sapiens, UniProt O15294); test = binding, phage display NGS; system = peptide; setting = concentration not given; scale = baseline: input library; quantity = enrichment fold change; value = 5.62
